{"data": "Measured values collected from several papers", "note": "Each line is one published result; not all experiments were run side by side. Values joined by “and” are separate records of one study, mostly repeats; a detail may differ. ± marks the error that the study gave.", "sequence of UniProt O88693 (whole entry, looked up)": "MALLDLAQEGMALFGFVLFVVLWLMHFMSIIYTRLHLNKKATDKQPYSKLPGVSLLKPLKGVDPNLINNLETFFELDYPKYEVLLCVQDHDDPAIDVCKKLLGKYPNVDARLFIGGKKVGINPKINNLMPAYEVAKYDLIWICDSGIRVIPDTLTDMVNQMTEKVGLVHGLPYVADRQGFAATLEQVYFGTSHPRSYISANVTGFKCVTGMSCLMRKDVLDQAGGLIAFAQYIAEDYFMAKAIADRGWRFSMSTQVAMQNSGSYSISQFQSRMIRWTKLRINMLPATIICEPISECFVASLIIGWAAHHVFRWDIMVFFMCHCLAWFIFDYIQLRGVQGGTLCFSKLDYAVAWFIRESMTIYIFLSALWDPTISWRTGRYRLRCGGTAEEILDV"}
{"Compound": "C=C(NC(=O)c1csc(-c2nc3c(cc2O)-c2nc(cs2)C(=O)NC(C(C)O)C(=O)NC(=C(C)OC)c2nc(cs2)C(=O)NC2c4nc(cs4)C(=O)NC(COC(=O)c4c5c6c(cccc6n4O)COC(=O)C(OC4CC(C)(O)C(N(C)C)C(C)O4)C2OC5)c2nc-3cs2)n1)C(N)=O (stereo not shown)", "tested on": "Streptococcus pneumoniae", "test system": "-25, immunocompromised mice, lung", "conditions": "32 mg/kg/day once daily, 24 h post-dose", "quantity": "lung bacterial load", "result": "3.98 log10 CFU/lung"}
{"Compound": "C=CC(=O)Nc1cccc(Cn2ncc3cnc(Nc4cnn(CCOC)c4)nc32)c1", "tested on": "ROCK2 human", "assay": "binding, KINOMEscan", "conditions": "100 nM", "how to read": "lower = stronger binding", "quantity": "percent of control", "result": "47%"}
{"Compound": "Cc1ncsc1-c1ccc(C(C)NC(=O)C2CC(O)CN2C(=O)C(NC(=O)CCCCCCCCCCN2CCCC(Nc3ncc(Cl)c(Nc4ccccc4S(=O)(=O)C(C)C)n3)C2)C(C)(C)C)cc1 (stereo not shown)", "tested on": "22Rv1", "assay": "RNA-seq, refers to: LPP-AS2", "conditions": "concentration not given", "how to read": "baseline: DMSO", "quantity": "log2 fold change", "result": -1.79}
{"Compound": "CC[n+]1cccc2cc(/C=N/NC(=O)C(=O)N/N=C/c3ccc4c(ccc[n+]4CC)c3)ccc21", "tested on": "22CTA telomeric G4-DNA antiparallel", "assay": "FRET melting", "conditions": "1 µM, K10 buffer, DNA 0.2 µM", "quantity": "ΔTm", "result": "4 ± 1.7 °C"}
{"Compound": "COC1OC(C)C(OS(=O)(=O)O)C(OC2OC(C)C(OS(=O)(=O)O)C(OC3OC(C)C(OS(=O)(=O)O)C(OC4OC(C)C(OS(=O)(=O)O)C(OC5OC(C)C(OS(=O)(=O)O)C(OC6OC(C)C(OS(=O)(=O)O)C(OS(=O)(=O)O)C6OS(=O)(=O)O)C5OS(=O)(=O)O)C4OS(=O)(=O)O)C3OS(=O)(=O)O)C2OS(=O)(=O)O)C1OS(=O)(=O)O (stereo not shown)", "test system": "human plasma", "conditions": "8 µg/mL", "quantity": "activated partial thromboplastin time", "result": "46.3 s and 45.8 s and 45.9 s"}
{"Compound": "COC1CN([C@H]2CC[C@H]([C@@]3(C)Oc4c(Cl)cc(C(=O)NCc5c(SC)cc(C)[nH]c5=O)c(C)c4O3)CC2)C1", "assay": "RNA-seq, refers to: LZTFL1", "test system": "human, whole blood", "conditions": "dose not given, 24 h", "how to read": "baseline: pretreatment baseline", "quantity": "log2 fold change", "result": 1.26}
{"Compound": "O=C(N/N=C/c1ccc2c(ccc[n+]2Cc2ccccc2)c1)c1cc(C(=O)N/N=C/c2ccc3c(ccc[n+]3Cc3ccccc3)c2)ncn1", "tested on": "22CTA telomeric G4-DNA antiparallel", "assay": "FRET melting", "conditions": "1 µM, K10 buffer, DNA 0.2 µM, together with: ds26 10 µM", "quantity": "ΔTm", "result": "11.8 ± 0.6 °C"}
{"Compound": "C=CC(=O)N1[C@H](c2ccc3c(c2)OCO3)c2[nH]c3ccccc3c2C[C@@H]1C(=O)N1CCN(C)CC1", "tested on": "human cyclin E1 N112C-3xFLAG:CDK2", "assay": "co-IP with TMT proteomics, refers to: RBMX", "conditions": "concentration not given, P38159", "how to read": "baseline: wild type DMSO", "quantity": "relative co-enrichment", "result": "153%"}
{"Compound": "COc1ccccc1-c1ccncc1C(=O)Nc1nnc(OCc2ccc(Cl)cc2)s1", "tested on": "DLD-1 BRCA2-/-", "conditions": "0.5 µM, mean of replicates", "quantity": "colony count", "result": "36.5 and 20.5 and 41"}
{"Compound": "O=C(N/N=C/c1cc[n+](Cc2ccccc2)c2ccccc12)c1cncc(C(=O)N/N=C/c2cc[n+](Cc3ccccc3)c3ccccc23)n1", "tested on": "22CTA telomeric G4-DNA antiparallel", "assay": "FRET melting", "conditions": "1 µM, K10 buffer, DNA 0.2 µM", "quantity": "ΔTm", "result": "16.8 ± 0.2 °C"}
{"Compound": "F[C@@H]1[C@H](c2ccc(-c3ccc(N4CCCC4)nc3)cc2)[C@H](F)[C@H](F)C[C@@H]1F", "assay": "liver microsome stability", "test system": "rat liver microsomes", "conditions": "1 µM", "quantity": "hepatic clearance", "result": "30 mL/min/kg"}
{"Compound": "COC1OC(C)C(OC2OC(C)C(OS(=O)(=O)O)C(OS(=O)(=O)O)C2OS(=O)(=O)O)C(OS(=O)(=O)O)C1OS(=O)(=O)O (stereo not shown)", "test system": "human plasma", "conditions": "128 µg/mL", "quantity": "activated partial thromboplastin time", "result": "42.5 ± 0.9 s"}
{"Compound": "CC(C)=CCOCCCCCN1C[C@H](O)[C@@H](O)[C@H](O)[C@@H]1CO", "tested on": "Ugcg (Mus musculus, UniProt O88693)", "assay": "enzyme activity, inhibitor, fluorescence", "quantity": "IC50", "result": "1.9 µM"}
{"Compound": "COC1OC(C)C(OC2OC(C)C(O)C(OC3OC(C)C(OC4OC(C)C(O)C(OC5OC(C)C(OC6OC(C)C(O)C(OC7OC(C)C(OC8OC(C)C(O)C(OC9OC(C)C(OC%10OC(C)C(O)C(OC%11OC(C)C(OC%12OC(C)C(O)C(OS(=O)(=O)O)C%12OS(=O)(=O)O)C(OS(=O)(=O)O)C%11OS(=O)(=O)O)C%10OS(=O)(=O)O)C(OS(=O)(=O)O)C9OS(=O)(=O)O)C8OS(=O)(=O)O)C(OS(=O)(=O)O)C7OS(=O)(=O)O)C6OS(=O)(=O)O)C(OS(=O)(=O)O)C5OS(=O)(=O)O)C4OS(=O)(=O)O)C(OS(=O)(=O)O)C3OS(=O)(=O)O)C2OS(=O)(=O)O)C(OS(=O)(=O)O)C1OS(=O)(=O)O (stereo not shown)", "test system": "human plasma", "conditions": "16 µg/mL", "quantity": "activated partial thromboplastin time", "result": "53 s and 51.6 s and 52.5 s"}
{"Compound": "Cc1cc(Cl)cc(S(C)=NC#N)c1NC(=O)c1cc(Br)nn1-c1ncccc1Cl (stereo not shown)", "tested on": "Plutella xylostella", "test system": "Raphanus sativus field", "conditions": "50 ppm, 72 h, 10% wettable powder", "quantity": "corrected larval mortality", "result": "90.4%"}
{"Compound": "c1ccc(-c2n[nH]cc2-c2ccnc3ccccc23)nc1", "tested on": "AKL1 (Candida albicans)", "assay": "kinase binding, MIB/MS competition", "test system": "Candida albicans lysate", "conditions": "1 µM", "how to read": "baseline: DMSO", "quantity": "log2 fold change", "result": 0.04}
{"Compound": "O=C(Nc1ccc([C@H]2[C@@H](F)[C@@H](F)C[C@@H](F)[C@H]2F)cc1)C1CC1", "assay": "liver microsome stability", "test system": "mouse liver microsomes", "conditions": "1 µM", "quantity": "hepatic clearance", "result": "36 mL/min/kg"}
{"Compound": "C[n+]1cc(/C=N/NC(=O)N/N=C/c2cc3ccccc3[n+](C)c2)cc2ccccc21", "tested on": "22CTA telomeric G4-DNA antiparallel", "assay": "FRET melting", "conditions": "1 µM, K10 buffer, DNA 0.2 µM, together with: ds26 10 µM", "quantity": "ΔTm", "result": "5.9 ± 1.6 °C"}
{"Compound": "COC1OC(C)C(OS(=O)(=O)O)C(OC2OC(C)C(OS(=O)(=O)O)C(OC3OC(C)C(OS(=O)(=O)O)C(OC4OC(C)C(OS(=O)(=O)O)C(OC5OC(C)C(OS(=O)(=O)O)C(OC6OC(C)C(OS(=O)(=O)O)C(OC7OC(C)C(OS(=O)(=O)O)C(OC8OC(C)C(OS(=O)(=O)O)C(OC9OC(C)C(OS(=O)(=O)O)C(OC%10OC(C)C(OS(=O)(=O)O)C(OS(=O)(=O)O)C%10O)C9O)C8O)C7O)C6O)C5O)C4O)C3O)C2O)C1O (stereo not shown)", "test system": "human plasma", "conditions": "128 µg/mL", "quantity": "activated partial thromboplastin time", "result": "42 ± 0.5 s"}
{"Compound": "C[n+]1cccc2cc(/C=N/NC(=O)c3ccc4ccc(C(=O)N/N=C/c5ccc6c(ccc[n+]6C)c5)nc4n3)ccc21", "tested on": "22CTA telomeric G4-DNA antiparallel", "assay": "FRET melting", "conditions": "1 µM, K10 buffer, DNA 0.2 µM, together with: ds26 10 µM", "quantity": "ΔTm", "result": "11 ± 0.2 °C"}
{"Compound": "CNS(=O)(=O)Nc1nccc(Cc2c(C)c3ccc(Oc4ncccc4F)cc3oc2=O)c1F", "tested on": "NCI-H1993", "assay": "cell viability", "conditions": "7 days", "quantity": "IC50", "result": "0.727 µM"}
{"Compound": "CN1CCCNC(=O)c2cccc(c2)C(=O)NCCCN(C)CCCNc2cccc3c2C(=O)c2cccc(c2C3=O)NCCC1", "tested on": "SAS", "assay": "RNA-Seq, refers to: CTPS1 mRNA", "conditions": "1 µM, 6 h", "how to read": "baseline: untreated cells", "quantity": "log2 fold change", "result": -1.13}
{"Compound": "C[n+]1ccc(/C=N/NC(=O)c2cncc(C(=O)N/N=C/c3cc[n+](C)c4ccccc34)n2)c2ccccc21", "tested on": "22CTA telomeric G4-DNA antiparallel", "assay": "FRET melting", "conditions": "1 µM, K10 buffer, DNA 0.2 µM", "quantity": "ΔTm", "result": "15.3 ± 0.4 °C"}
{"Compound": "CCN(CC)CC(=O)Nc1cccc(-n2cc(-c3ccc4ccc(-c5cn(-c6cccc(NC(=O)CN(CC)CC)c6)nn5)cc4c3)nn2)c1", "tested on": "RCC4", "assay": "PCR angiogenesis array, refers to: MMP2", "conditions": "5 x IC50, 2 h, normoxia", "how to read": "baseline: untreated", "quantity": "fold regulation", "result": 2.11}
{"Compound": "C[n+]1cc(/C=N/NC(=O)c2cncc(C(=O)N/N=C/c3cc4ccccc4[n+](C)c3)n2)cc2ccccc21", "tested on": "22CTA telomeric G4-DNA antiparallel", "assay": "FRET melting", "conditions": "1 µM, K10 buffer, DNA 0.2 µM", "quantity": "ΔTm", "result": "9 ± 0.1 °C"}
{"Compound": "Nc1ncc(-c2cc(-c3cnn(CC(F)(F)F)c3)ncc2F)nc1C(=O)NC1CNCC(F)C1 (stereo not shown)", "tested on": "MAP3K2", "assay": "KINOMEscan", "conditions": "1 µM", "how to read": "baseline: DMSO control", "quantity": "remaining binding", "result": "36%"}
{"Compound": "C[n+]1cc(/C=N/NC(=O)c2cccc(C(=O)N/N=C/c3cc4ccccc4[n+](C)c3)n2)cc2ccccc21", "tested on": "22CTA telomeric G4-DNA antiparallel", "assay": "FRET melting", "conditions": "1 µM, K10 buffer, DNA 0.2 µM, together with: ds26 10 µM", "quantity": "ΔTm", "result": "9.7 ± 0.3 °C"}
{"Compound": "CO[C@@H]1[C@@H](OC(N)=O)[C@@H](O)[C@H](Oc2ccc3c(O)c(NC(=O)c4ccc(O)c(CC=C(C)C)c4)c(=O)oc3c2C)OC1(C)C", "tested on": "DLD-1 BRCA2-/-", "conditions": "300 µM, replicate 2", "quantity": "colony count", "result": 0.1}
{"note": "Excerpt of the above:"}
{"Compound": "CN1CCCNC(=O)c2cccc(c2)C(=O)NCCCN(C)CCCNc2cccc3c2C(=O)c2cccc(c2C3=O)NCCC1", "tested on": "SAS", "assay": "RNA-Seq, refers to: CTPS1 mRNA", "conditions": "1 µM, 6 h", "how to read": "baseline: untreated cells", "quantity": "log2 fold change", "result": -1.13}
{"Compound": "C[n+]1ccc(/C=N/NC(=O)c2cncc(C(=O)N/N=C/c3cc[n+](C)c4ccccc34)n2)c2ccccc21", "tested on": "22CTA telomeric G4-DNA antiparallel", "assay": "FRET melting", "conditions": "1 µM, K10 buffer, DNA 0.2 µM", "quantity": "ΔTm", "result": "15.3 ± 0.4 °C"}
